Experimental data from different studies.
Lines come from different studies, so protocols differ. Numbers after ± are the reported error.

Structure (SMILES) | target | test | test system | setting | IC50
CC=CCC(C)C(O)C1C(=O)NC(CC)C(=O)N(C)C(OCC)C(=O)N(C)C(CC(C)(C)O)C(=O)NC(C(C)C)C(=O)N(C)C(CC(C)C)C(=O)NC(C)C(=O)NC(C)C(=O)N(C)C(CC(C)C)C(=O)N(C)C(CC(C)C)C(=O)N(C)C(C(C)C)C(=O)N1C (stereo not shown) | calcineurin (human) | IL-2 production, inhibitor | Jurkat | 6 h, together with: anti-CD3/anti-CD28 | > 1 mg/L
COc1ccc2ccc3c(c2c1)C=[N+]1C2CCCCC2[N+]2=Cc4ccc(OCCN5CCCCC5)cc4[O][Au-]21[O]3.F[P-](F)(F)(F)(F)F (stereo not shown) | Klebsiella pneumoniae thioredoxin reductase | inhibitor | carbapenem-resistant | together with: DTNB | 16.5 µM
COCOC[C@H]1O[C@H](O[C@H]2[C@H](O[C@@H]3O[C@H](CO)[C@@H](O[C@H]4O[C@@H](CN)[C@@H](O)[C@H](O)[C@H]4N)[C@H]3O)[C@@H](O)[C@H](N)C[C@@H]2N)[C@H](N)[C@@H](O)[C@@H]1O | Mycobacterium smegmatis ribosome wild type | translation, cell-free luciferase synthesis | – | – | 1.57 ± 0.42 mg/L
CCCCCCCCC(=O)NCc1ccc(O)c(OC)c1 | mAb 2-LD2 | antibody binding, indirect competitive ELISA | – | together with: coating antigen hapten 3-OVA | 0.00121 mg/L
C/C=C1\NC(=O)[C@H](Cc2ccccc2)NC(=O)[C@H](C(C)C)NC(=O)[C@H](Cc2c[nH]cn2)NC(=O)[C@H](CCC(N)=O)NC(=O)[C@H](Cc2ccc3ccccc3c2)NC(=O)[C@H]2CSC[C@@H](C(=O)N[C@@H](CO)C(=O)O)NC(=O)[C@H](CSC[C@H]3NC(=O)[C@H]([C@@H](C)CC)NC(=O)[C@H](NC(=O)[C@H](Cc4c[nH]cn4)NC(=O)[C@@H](NC(=O)[C@@H](NC(=O)CNC(=O)[C@H](CO)NC(=O)CNC(=O)CNC(=O)[C@@H](N)CCCCN)C(C)C)[C@@H](C)CC)[C@H](C)SC[C@H](NC(=O)[C@H](CCC(=O)O)NC(=O)[C@H](Cc4c[nH]cn4)NC3=O)C(=O)N[C@@H](CCCNC(=N)N)C(=O)N[C@@H](CCSC)C(=O)N[C@@H](CC(N)=O)C(=O)N2)NC1=O | PBP1b, Escherichia coli | transglycosylation, inhibitor | – | together with: [14C]GlcNAc-labelled lipid II | 27 ± 5.6 µM
CCCCO[C@H]1[C@H](O)[C@@H](N)[C@@H](O[C@H]2[C@H](O[C@@H]3O[C@H](CO)[C@@H](O[C@H]4O[C@@H](CN)[C@@H](O)[C@H](O)[C@H]4N)[C@H]3O)[C@@H](O)[C@H](N)C[C@@H]2N)O[C@@H]1CO | ribosome with human cytosolic A site | luciferase translation, cell-free translation | – | – | 161 ± 13.9 mg/L
CC[C@H](C)[C@@H]1NC(=O)[C@H](Cc2ccc(O)cc2)NC(=O)[C@@H](N)CSSC[C@@H](C(=O)N2CCC[C@H]2C(=O)N2CCC[C@H]2C(=O)NCC(N)=O)NC(=O)[C@H](CC(N)=O)NC(=O)[C@H](CCC(N)=O)NC1=O | oxytocin receptor (titi monkey) | membrane hyperpolarisation | CHO cells | – | 3.86e-05 µM
CCCCCO[C@H]1[C@H](O)[C@@H](N)[C@@H](O[C@H]2[C@H](O[C@@H]3O[C@H](CO)[C@@H](O[C@H]4O[C@@H](CN)[C@@H](O)[C@H](O)[C@H]4N)[C@H]3O)[C@@H](O)[C@H](N)C[C@@H]2N)O[C@@H]1CO | Mycobacterium smegmatis ribosome wild type | translation, cell-free luciferase synthesis | – | – | 0.4 ± 0.11 mg/L
COc1ccc2ccc3c(c2c1)C=[N+]1C2CCCCC2[N+]2=Cc4cccc(OC)c4[O][Au-]21[O]3.F[P-](F)(F)(F)(F)F (stereo not shown) | Klebsiella pneumoniae thioredoxin reductase | cellular enzyme activity, inhibitor | Klebsiella pneumoniae, carbapenem-resistant | 4 h | 7.94 µM
C/C=C1\NC(=O)[C@H](Cc2ccccc2)NC(=O)[C@H](C(C)C)NC(=O)[C@H](Cc2c[nH]cn2)NC(=O)[C@H](CCC(N)=O)NC(=O)[C@H](Cc2c[nH]c3ccccc23)NC(=O)[C@H]2CSC[C@@H](C(=O)N[C@@H](CO)C(=O)O)NC(=O)[C@H](CSC[C@H]3NC(=O)[C@H]([C@@H](C)CC)NC(=O)[C@H](NC(=O)[C@H](Cc4c[nH]cn4)NC(=O)[C@@H](NC(=O)[C@@H](NC(=O)CNC(=O)[C@H](CO)NC(=O)CNC(=O)CNC(=O)[C@@H](N)CCCCN)C(C)C)[C@@H](C)CC)[C@H](C)SC[C@H](NC(=O)[C@H](CCC(=O)O)NC(=O)[C@H](Cc4c[nH]cn4)NC3=O)C(=O)N[C@@H](CCCNC(=N)N)C(=O)N[C@@H](CCSC)C(=O)N[C@@H](CC(N)=O)C(=O)N2)NC1=O | PBP1b, Escherichia coli | transglycosylation, inhibitor | – | together with: [14C]GlcNAc-labelled lipid II | 7 ± 2.9 µM

Excerpt of the above:
Structure (SMILES) | target | test | test system | setting | IC50
CCCCCCCCC(=O)NCc1ccc(O)c(OC)c1 | mAb 2-LD2 | antibody binding, indirect competitive ELISA | – | together with: coating antigen hapten 3-OVA | 0.00121 mg/L
C/C=C1\NC(=O)[C@H](Cc2ccccc2)NC(=O)[C@H](C(C)C)NC(=O)[C@H](Cc2c[nH]cn2)NC(=O)[C@H](CCC(N)=O)NC(=O)[C@H](Cc2ccc3ccccc3c2)NC(=O)[C@H]2CSC[C@@H](C(=O)N[C@@H](CO)C(=O)O)NC(=O)[C@H](CSC[C@H]3NC(=O)[C@H]([C@@H](C)CC)NC(=O)[C@H](NC(=O)[C@H](Cc4c[nH]cn4)NC(=O)[C@@H](NC(=O)[C@@H](NC(=O)CNC(=O)[C@H](CO)NC(=O)CNC(=O)CNC(=O)[C@@H](N)CCCCN)C(C)C)[C@@H](C)CC)[C@H](C)SC[C@H](NC(=O)[C@H](CCC(=O)O)NC(=O)[C@H](Cc4c[nH]cn4)NC3=O)C(=O)N[C@@H](CCCNC(=N)N)C(=O)N[C@@H](CCSC)C(=O)N[C@@H](CC(N)=O)C(=O)N2)NC1=O | PBP1b, Escherichia coli | transglycosylation, inhibitor | – | together with: [14C]GlcNAc-labelled lipid II | 27 ± 5.6 µM
